# Measurements pooled from the literature.
# Every numbered part comes from another study and shows a few of its results, in no order. Values joined by “and” are separate records of one study, mostly repeats; a detail may differ.
# Chain of UniProt Q15349 (whole entry, looked up): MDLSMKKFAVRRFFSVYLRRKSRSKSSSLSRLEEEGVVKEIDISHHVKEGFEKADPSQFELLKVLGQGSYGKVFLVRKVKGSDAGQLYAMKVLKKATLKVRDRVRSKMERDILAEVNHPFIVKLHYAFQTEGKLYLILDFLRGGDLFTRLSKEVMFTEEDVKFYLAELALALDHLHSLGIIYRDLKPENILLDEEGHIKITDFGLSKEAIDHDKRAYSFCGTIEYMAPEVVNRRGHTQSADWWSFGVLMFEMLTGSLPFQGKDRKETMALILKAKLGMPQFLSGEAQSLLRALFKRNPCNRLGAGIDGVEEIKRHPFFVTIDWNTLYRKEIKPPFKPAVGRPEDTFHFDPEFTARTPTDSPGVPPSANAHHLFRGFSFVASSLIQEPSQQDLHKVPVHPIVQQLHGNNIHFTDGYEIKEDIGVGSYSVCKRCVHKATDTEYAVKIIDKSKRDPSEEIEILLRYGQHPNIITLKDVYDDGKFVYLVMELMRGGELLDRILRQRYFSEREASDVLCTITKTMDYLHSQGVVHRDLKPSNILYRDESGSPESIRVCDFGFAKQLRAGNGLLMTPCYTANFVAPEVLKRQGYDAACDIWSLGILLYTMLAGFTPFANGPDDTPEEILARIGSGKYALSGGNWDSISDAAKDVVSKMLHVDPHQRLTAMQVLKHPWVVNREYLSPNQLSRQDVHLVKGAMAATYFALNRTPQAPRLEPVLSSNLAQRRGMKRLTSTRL
# Chain of UniProt Q9BQI3 (whole entry, looked up): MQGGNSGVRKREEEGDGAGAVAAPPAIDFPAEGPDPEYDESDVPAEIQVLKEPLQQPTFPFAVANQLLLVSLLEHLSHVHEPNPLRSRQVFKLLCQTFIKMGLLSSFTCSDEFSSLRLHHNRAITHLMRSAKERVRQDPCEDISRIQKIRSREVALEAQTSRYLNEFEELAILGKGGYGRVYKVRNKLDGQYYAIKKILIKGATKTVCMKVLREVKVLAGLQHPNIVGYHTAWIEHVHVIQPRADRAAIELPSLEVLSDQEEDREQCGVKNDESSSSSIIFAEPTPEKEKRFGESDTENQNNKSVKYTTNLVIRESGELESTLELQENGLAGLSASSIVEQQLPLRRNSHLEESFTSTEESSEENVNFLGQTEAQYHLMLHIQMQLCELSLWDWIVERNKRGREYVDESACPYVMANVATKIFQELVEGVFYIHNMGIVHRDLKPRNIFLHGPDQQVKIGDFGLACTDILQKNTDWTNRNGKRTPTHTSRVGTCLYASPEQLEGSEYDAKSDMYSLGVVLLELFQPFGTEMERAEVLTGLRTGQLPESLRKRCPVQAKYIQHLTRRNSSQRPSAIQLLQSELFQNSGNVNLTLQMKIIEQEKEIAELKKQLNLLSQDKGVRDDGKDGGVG
# Chain of UniProt Q12852 (whole entry, looked up): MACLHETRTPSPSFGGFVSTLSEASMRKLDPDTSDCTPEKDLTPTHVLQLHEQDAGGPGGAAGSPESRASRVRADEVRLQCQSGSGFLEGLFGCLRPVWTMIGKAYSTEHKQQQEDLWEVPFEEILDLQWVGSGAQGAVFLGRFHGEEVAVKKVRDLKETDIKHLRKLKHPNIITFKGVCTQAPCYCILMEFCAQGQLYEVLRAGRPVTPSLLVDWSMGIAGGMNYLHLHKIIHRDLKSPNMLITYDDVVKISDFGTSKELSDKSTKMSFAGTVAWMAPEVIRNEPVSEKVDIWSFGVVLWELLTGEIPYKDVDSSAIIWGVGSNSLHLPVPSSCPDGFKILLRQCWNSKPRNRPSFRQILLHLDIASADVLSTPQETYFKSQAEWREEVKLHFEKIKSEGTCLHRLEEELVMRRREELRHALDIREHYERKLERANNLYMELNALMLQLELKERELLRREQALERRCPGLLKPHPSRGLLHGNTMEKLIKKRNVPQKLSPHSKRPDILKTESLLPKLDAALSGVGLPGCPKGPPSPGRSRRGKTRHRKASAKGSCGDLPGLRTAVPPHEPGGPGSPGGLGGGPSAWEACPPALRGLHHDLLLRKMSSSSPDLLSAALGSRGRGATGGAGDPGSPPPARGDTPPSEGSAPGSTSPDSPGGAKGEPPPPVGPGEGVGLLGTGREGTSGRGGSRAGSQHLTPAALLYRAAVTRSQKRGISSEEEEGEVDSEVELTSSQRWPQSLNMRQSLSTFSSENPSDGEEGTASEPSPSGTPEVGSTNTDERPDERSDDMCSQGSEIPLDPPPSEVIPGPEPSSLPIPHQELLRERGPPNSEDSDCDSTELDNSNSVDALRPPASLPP
# Chain of UniProt Q8TF76 (whole entry, looked up): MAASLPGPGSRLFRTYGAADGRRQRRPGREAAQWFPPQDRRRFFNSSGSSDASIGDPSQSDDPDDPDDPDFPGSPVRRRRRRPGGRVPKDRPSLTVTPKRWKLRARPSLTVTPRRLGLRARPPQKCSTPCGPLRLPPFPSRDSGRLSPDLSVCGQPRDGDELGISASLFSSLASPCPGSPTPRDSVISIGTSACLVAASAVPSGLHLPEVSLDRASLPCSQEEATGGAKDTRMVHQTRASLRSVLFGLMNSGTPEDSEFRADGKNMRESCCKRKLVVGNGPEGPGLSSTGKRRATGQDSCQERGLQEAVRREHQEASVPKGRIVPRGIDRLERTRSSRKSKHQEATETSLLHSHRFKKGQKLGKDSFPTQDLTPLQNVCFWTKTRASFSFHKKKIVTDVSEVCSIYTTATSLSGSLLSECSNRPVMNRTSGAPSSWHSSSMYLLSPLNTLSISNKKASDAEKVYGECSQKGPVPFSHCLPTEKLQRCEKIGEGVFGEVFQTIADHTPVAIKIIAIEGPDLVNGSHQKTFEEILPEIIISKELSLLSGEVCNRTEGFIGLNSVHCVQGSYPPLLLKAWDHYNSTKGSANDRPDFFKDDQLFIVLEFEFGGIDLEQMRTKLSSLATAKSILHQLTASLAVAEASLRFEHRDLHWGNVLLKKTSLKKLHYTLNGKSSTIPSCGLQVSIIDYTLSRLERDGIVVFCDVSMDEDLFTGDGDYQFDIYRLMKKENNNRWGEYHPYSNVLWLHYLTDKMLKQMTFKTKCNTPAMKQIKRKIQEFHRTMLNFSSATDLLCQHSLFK
# Chain of UniProt O75676 (whole entry, looked up): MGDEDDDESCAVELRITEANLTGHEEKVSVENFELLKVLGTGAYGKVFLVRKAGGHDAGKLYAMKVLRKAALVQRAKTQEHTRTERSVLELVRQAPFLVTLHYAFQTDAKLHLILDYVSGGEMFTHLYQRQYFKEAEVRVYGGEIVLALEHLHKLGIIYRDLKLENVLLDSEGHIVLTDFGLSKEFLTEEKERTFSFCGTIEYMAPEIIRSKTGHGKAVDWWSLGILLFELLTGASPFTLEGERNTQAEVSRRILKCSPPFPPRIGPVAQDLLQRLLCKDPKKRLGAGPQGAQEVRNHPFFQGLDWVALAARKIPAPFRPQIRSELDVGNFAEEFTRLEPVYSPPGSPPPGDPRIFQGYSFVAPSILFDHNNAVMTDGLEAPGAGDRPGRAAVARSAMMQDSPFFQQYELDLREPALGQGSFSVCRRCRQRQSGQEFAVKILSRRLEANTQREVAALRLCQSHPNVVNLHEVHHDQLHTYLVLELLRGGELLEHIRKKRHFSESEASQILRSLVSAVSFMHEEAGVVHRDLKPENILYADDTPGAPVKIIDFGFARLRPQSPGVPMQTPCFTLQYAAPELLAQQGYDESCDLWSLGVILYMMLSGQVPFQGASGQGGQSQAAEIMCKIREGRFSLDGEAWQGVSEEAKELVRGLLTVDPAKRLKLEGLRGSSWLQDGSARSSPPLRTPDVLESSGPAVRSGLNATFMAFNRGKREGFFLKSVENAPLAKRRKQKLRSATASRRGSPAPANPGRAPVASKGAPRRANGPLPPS
# Chain of UniProt Q8WTQ7 (whole entry, looked up): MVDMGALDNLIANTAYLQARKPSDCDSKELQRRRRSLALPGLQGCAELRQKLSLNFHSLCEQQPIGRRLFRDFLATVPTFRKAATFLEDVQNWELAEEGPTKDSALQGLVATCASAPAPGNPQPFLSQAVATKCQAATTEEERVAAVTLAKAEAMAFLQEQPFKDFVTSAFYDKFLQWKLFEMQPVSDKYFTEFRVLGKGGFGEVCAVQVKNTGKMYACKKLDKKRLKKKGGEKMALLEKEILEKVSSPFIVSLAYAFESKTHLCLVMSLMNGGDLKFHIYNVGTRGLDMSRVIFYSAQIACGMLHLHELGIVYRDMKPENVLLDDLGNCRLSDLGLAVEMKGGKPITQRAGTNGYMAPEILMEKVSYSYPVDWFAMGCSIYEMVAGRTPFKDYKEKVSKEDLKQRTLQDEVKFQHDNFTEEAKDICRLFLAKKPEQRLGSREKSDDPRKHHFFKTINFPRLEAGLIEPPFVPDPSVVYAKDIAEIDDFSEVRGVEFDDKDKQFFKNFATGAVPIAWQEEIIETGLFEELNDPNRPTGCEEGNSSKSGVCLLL

# Study 1
# Target: Maternal embryonic leucine zipper kinase (MELK, Homo sapiens, UniProt Q14680)
# Chain of UniProt Q14680 (whole entry, looked up): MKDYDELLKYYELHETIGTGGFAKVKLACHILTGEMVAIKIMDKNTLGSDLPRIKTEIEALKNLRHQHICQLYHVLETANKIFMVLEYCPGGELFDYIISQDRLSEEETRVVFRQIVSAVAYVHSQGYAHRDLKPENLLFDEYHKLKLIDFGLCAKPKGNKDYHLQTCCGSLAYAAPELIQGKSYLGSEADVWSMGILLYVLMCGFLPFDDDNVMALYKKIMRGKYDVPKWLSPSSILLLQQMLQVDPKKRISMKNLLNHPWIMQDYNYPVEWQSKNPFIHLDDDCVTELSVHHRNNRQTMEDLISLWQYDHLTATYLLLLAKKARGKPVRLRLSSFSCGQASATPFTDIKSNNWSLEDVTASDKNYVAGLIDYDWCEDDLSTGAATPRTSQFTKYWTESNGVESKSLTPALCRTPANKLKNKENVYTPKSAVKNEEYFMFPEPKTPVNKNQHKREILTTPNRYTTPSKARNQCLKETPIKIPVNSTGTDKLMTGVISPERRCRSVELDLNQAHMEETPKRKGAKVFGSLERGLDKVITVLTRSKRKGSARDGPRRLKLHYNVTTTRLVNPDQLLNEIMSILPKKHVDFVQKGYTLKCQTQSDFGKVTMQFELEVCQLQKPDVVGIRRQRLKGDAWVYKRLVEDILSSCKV
# Observed: enzyme activity
# Mode: inhibitor
# Concentration: 0.5 µM
# Baseline: control
SMILES,remaining activity [%]
O=C1NC(=O)C(c2cn(CCCn3ccnc3)c3ccccc23)=C1Nc1ccccc1,101
OCC(O)CCON=C1C(c2c(O)[nH]c3ccccc23)=Nc2ccccc21 (stereo not shown),13.1
Cc1ccc(NC(=O)c2ccc(CN3CCN(C)CC3)cc2)cc1Nc1nc(-c2cccnc2)cs1,84.8
Cc1cccc(-c2[nH]c(C(C)(C)C)nc2-c2ccc3c(c2)OCO3)n1,92.7
COc1cc2nccc(Oc3ccc(NC(=S)NC(=O)c4ccccc4C)cc3)c2cc1OC,98.5
Cn1c2ccccc2c2c3c(c4c5ccccc5n(CCC#N)c4c21)CNC3=O,21.1
COc1ccc(OC)c2c(=S)c3ccccc3[nH]c12,96.6
O=C1NC(=O)C(c2cn(CCCO)c3ncccc23)=C1c1cnccn1,101
O=c1c2ccccc2[nH]c(=S)n1CCN1CCC(=C(c2ccc(F)cc2)c2ccc(F)cc2)CC1,104
O=C(CCCc1ccc(-c2ccccc2F)cc1)Nc1ccc(O)cc1,95.5
COc1ccc(C(=O)Nc2sc3c(c2C(N)=O)CCCC3)cc1OC,46
Nc1[nH]nc2nc3ccccc3nc12,92.9
NCCNc1ncc(C(N)=O)c(Nc2cccc(C(F)(F)F)c2)n1,95.8
Oc1ccc(-c2nc(-c3ccncc3)c(-c3ccc(F)cc3)[nH]2)cc1,102
CNC(=O)c1cc(Oc2ccc(NC(=O)Nc3ccc(Cl)c(C(F)(F)F)c3)cc2)ccn1,93.6

# Study 2
# Structure (SMILES): CO[C@@H]1[C@H](N(C)C(=O)c2ccccc2)C[C@H]2O[C@]1(C)n1c3ccccc3c3c4c(c5c6ccccc6n2c5c31)C(=O)NC4
# Mode: inhibitor
# Concentration: 1 µM
target,observed,inhibition
"GRK7 (Homo sapiens, UniProt Q8WTQ7)",enzyme activity,99%
"TBK1 (Homo sapiens, UniProt Q9UHD2)",enzyme activity,98%
"GRK3 (Homo sapiens, UniProt P35626)",enzyme activity,58%
"Ribosomal protein S6 kinase alpha-2, kinase domain 2 (RPS6KA2, Homo sapiens, UniProt Q15349)",,6%
"Ribosomal protein S6 kinase alpha-4, C-terminal kinase domain (RPS6KA4, Homo sapiens, UniProt O75676)",,9%
"CSNK1A1L (Homo sapiens, UniProt Q8N752)",enzyme activity,0%
"PIM3 (Homo sapiens, UniProt Q86V86)",enzyme activity,45%
"HASPIN (Homo sapiens, UniProt Q8TF76)",enzyme activity,20%

# Study 3
# Structure (SMILES): CCCCN(CCCC)C(=O)CN1C[C@@H](c2cc(OC)c3c(c2)OCO3)[C@H](C(=O)O)[C@H]1CC(C)(C)CCC
# Observed: cell-free assay
# Method: competition with immobilised ligand
# Concentration: 1 µM
target,remaining binding
"PAK5 (Homo sapiens, UniProt Q9P286)",96.6%
"GRK4 (Homo sapiens, UniProt P32298)",95.8%
"EPHB2 (Homo sapiens, UniProt P29323)",73%
"MAP3K12 (Homo sapiens, UniProt Q12852)",89.9%
"FLT3 (Homo sapiens, UniProt P36888, K663Q)",80.1%
"PTK2 (Homo sapiens, UniProt Q05397)",100%
"EIF2AK1 (Homo sapiens, UniProt Q9BQI3)",100%

# Study 4
# Cell line: mouse MPNST tumor cells
# Method: high-content immunofluorescence imaging
# Measured: nuclear SOX9
# Concentration: 10 µM
# Time: 12 h
# Setting: mean of 2 replicates
# Baseline: DMSO control
# Reading: higher = more nuclear SOX9
Structure (SMILES),nuclear SOX9 intensity
Cc1cc(C(=O)N2Cc3cnn(C)c3Nc3ccccc32)ccc1CNC(=O)N1CCC[C@H]1C(=S)N1CCCN(C)CC1,97.7 % of DMSO
N#CC(c1ccccc1)(c1ccccc1)c1ccccc1Cl,104 % of DMSO
COc1ccc(CN2C(=O)C(=O)c3cc(OC(F)(F)F)ccc32)cc1,205 % of DMSO
Cc1ccc(Cl)c(Nc2ccccc2C(=O)O)c1Cl,113 % of DMSO and 94.6 % of DMSO
Clc1cccc(Cl)c1CSc1nnc(-c2ccc[nH]2)o1,88.3 % of DMSO
CCc1c(C)[nH]c2c1C(=O)C(CN1CCOCC1)CC2 (stereo not shown),106 % of DMSO
Nc1ncn([C@H]2C[C@H](O)[C@@H](CO)O2)c(=O)n1,117 % of DMSO

# For quick reference, copied from above (study 1):
SMILES,remaining activity [%]
Cc1cccc(-c2[nH]c(C(C)(C)C)nc2-c2ccc3c(c2)OCO3)n1,92.7
O=C(CCCc1ccc(-c2ccccc2F)cc1)Nc1ccc(O)cc1,95.5
Cn1c2ccccc2c2c3c(c4c5ccccc5n(CCC#N)c4c21)CNC3=O,21.1
Oc1ccc(-c2nc(-c3ccncc3)c(-c3ccc(F)cc3)[nH]2)cc1,102
